Measurements from different studies.
Each numbered part is a random draw from the data of one study; scales do not carry over between parts. Positions count from the first letter of the parent shown.

Series 1 — method: RNA Bind-n-Seq; form: RNA; matrix: in vitro; tested at: 365 nM; relative to: no-protein control; direction: higher = stronger binding; measurement: RBNS enrichment (R)
Target: RNA binding protein fox-1 homolog 2, RRM domain, GST-SBP tag (RBFOX2, Homo sapiens, UniProt O43251-10, residues 100-194)
Setting: natural RNA segment, single round, ends assumed
Constant ends, left off below: GGGAGUUCUACAGUCCGACGAUC … UGGAAUUCUCGGGUGCCAA
Construct (chain): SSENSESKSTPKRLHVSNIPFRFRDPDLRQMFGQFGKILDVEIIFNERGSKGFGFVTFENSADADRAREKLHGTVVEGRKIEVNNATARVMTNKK
AAGGUCCUACCAUCUUAUAUGUGACAUAGUUGUGUCCAGACUCCAGGCCUCUCCUGCUCAGUCUAGCUCUACAAAGUUCUGUAAAAGACUGGUCCGCAUAUAUAAAGGUC: 0.287
UAUACACUUAAUGUUGUUAUUGUAUGUUGUUACUGAAGUACUUAGAUUUUUAAAAUUUCAAAUCCUAAAUCACUUCUUGUAGGAGGGUUUUCAUUAACUGCAGUAUAUAC: 0.688
GGACCUUUCCUCCCCGGUCUCAGAGAUGCACAUCUCUUUGAGGAUCGGCUUGGCUGGAAGACAGGGUGUGAGUGCGACAACAGGGGCACAGGUUGGGUUUGCCAAACGUC: 0.477
UCCCCGCCCCUGACUGAUGGCAGGAAUCCAAGUGCAUUUCUUAAAUAAGUUACUAUUUAUUCCGCUCCGCCCCCUCCCUCUCCCUUGAGAAGCUGAGUCUUCUGCAUCAG: 0.637
UACUUUUAGCUUUAUUCCCUAAAUUUGAUUUCAUAAACAUGCUAAAAUUUGCAAGAGAAUUAACACAUACACAGUUUGCCAAAUCAUAUCAAAUCUUCCCAUUGGAGAUA: 0.659
UCCCUUUUUCUACAUAUGUGUAGAUUCAUUCUAUAAGGUCUGUUCUCUAAAGAACCUUAACUAAUGCAUCAUAAGAAUUCUCCUUUCUUUGUCUUAUGGUAUUUUUUAGG: 0.573
UAUAGCUUGCCAGUAUUGUUAAGGUAUCCAAAGCCUUUCUAGAUAGAGACAGGAACAUUGACUUGAACAUAUGUAUGUAAGAGUCCAGGCUCAUUCUGAGUUGAUGAAAA: 2.01
AGGUUGGGUGCAUUGUCAGUAAAAAGGGCUUAUUUGUUUCAUUUUACUUUCCUGCAAAAUUUUCUUCAAAGCAACAAGUCCUAGGAGCACACAAAGCAACCCAAAGGCUU: 0.341
UCUCCGCCUGCCCUCUUCCCCUUGUUUCCUUGGGUGAGUGUGGGGGGCAGCCUGCUGUCCCUCCCACCUGCACAGUGAUGCUGUCUGGUGGGGCCUCGUGGUGCCUAGGA: 0.189
UUUUUUGCAAUUAAGGCAGGCAUUUGCCAAUGUCUUCUUUUAAGCAGUAGUUGGAAACAUCUCAAUUACAGUGUAACACCUUAGAGCUAAAAACAUUUGUUCAACACAAA: 0.229
GAUGGUGUCACCUAUGGGUUUUGAACCAGUGUGGUAUGGUCCUUGGGAGCUCUGCUCUGAGCUUGCCACACUGCUGAGAGCACCCACUGUCCUGACCAGAGUCUCAGUGG: 0.291
CUCUACCUCCUCCUUUCCCAAUUAAUUUCAACCAUAGUACGAUGUUUGGGGUUGUAUAUUUUGUUAAAAAGAUUAAAGAAUUUAUGAGUUGGCUUGGACAAGUUUAACUU: 0.962

Series 2 — method: DHFR PCA, deep sequencing; matrix: yeast; together with: (+)-ABA 0 µM; relative to: wild-type fitted maximum; direction: higher = stronger binding; measurement: relative binding score
Target: ABI1, truncated, D143A, DHFR fusion (Arabidopsis thaliana)
Setting: methotrexate growth selection, single substitutions
Starting sequence: PYL1, truncated, DHFR fusion (Arabidopsis thaliana); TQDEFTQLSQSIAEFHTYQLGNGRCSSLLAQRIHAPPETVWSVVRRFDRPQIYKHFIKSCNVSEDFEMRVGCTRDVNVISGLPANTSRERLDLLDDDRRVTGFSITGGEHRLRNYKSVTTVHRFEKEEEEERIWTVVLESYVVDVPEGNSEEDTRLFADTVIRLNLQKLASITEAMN
F15P: 4.32%
D95G: -8%
D97R: 13.7%
D3Y: 41.4%
R46P: 2.61%
E174D: -0.558%
M68I: 30.7%
R88N: 11.2%
F47M: -7.76%
P36M: 3.03%
V40F: -7.21%
S104R: 0.582%

Series 3 — method: RNAcompete; form: RNA; matrix: in vitro; tested at: 20 nM; setting: 7-mer, probes averaged, single round; relative to: mean of 7-mers; direction: higher = stronger binding; measurement: 7-mer Z-score
Target: PABPC1L2, full length, GST fusion (mouse, UniProt A0ABA7IW68)
Construct (chain): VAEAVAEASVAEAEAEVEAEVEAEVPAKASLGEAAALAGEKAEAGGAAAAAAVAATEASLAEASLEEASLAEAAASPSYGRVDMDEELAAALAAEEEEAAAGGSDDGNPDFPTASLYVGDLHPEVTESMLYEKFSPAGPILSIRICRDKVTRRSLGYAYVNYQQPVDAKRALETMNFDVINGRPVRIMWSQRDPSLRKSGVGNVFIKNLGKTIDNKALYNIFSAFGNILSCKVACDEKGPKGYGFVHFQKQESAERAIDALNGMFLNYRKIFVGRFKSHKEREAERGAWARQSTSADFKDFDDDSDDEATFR
UUUCGAG: -0.267
GUGUAGG: 0.256
CAUUCUG: -0.307
AGCAAGA: 0.149
CUUCUCG: -0.458
CGAUUAA: 0.142
AAGGCUG: 0.35
UGGUCUC: -0.338
GAAUAGA: 0.164
CGGGUUC: -0.19
UUAUGGA: -0.0573
ACCGUGC: -0.0844
ACUCGGA: 0.0352
CGGCAGA: 0.189
ACGCAAC: -0.101
CCAAUUU: -0.135
GUCCCCU: -0.416
AUGACAA: 0.276
AGCCUAA: -0.166
GAUAAAA: 4.71
AUCGAGG: -0.0192
UGGCGUC: -0.142
UACGGUC: -0.22
GUAGCAA: 0.0533
ACAGGGU: 0.167

Series 4 — method: protein binding microarray; form: double-stranded DNA, one strand shown; matrix: in vitro; tested at: not given; relative to: not given; direction: higher = stronger binding; measurement: E-score
Target: Histone acetyltransferase KAT6A, winged helix 2, GST fusion (KAT6A, Homo sapiens, UniProt Q92794, residues 85-181)
Setting: 8-mer, flanks averaged, mean of 2 arrays, mostly near background
Target sequence (chain): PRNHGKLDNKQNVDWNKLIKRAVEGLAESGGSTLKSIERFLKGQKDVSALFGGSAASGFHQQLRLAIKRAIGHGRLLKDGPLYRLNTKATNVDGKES
AGCGAAAT: -0.0958
ATGTTCTG: -0.0224
GGATCCCA: -0.00359
AAGCAGAA: 0.0712
ATGTGACA: 0.017
CGACTTAC: -0.157
AATAGGTA: -0.171
AAGGCGGA: 0.217
CTAGGGTA: -0.126
ACATAAAC: 0.0145
GTATAAAC: 0.132
AGCGCCCA: -0.0872
CAAGAGGA: 0.082
CGTCGTGA: -0.075
CGGGGGCA: 0.025
AGTGGACA: 0.0708
ACTGATTC: 0.0186
AGATGGGA: -0.217
CTGCCTAA: 0.0293

Series 5 — method: protein-binding microarray; form: double-stranded DNA, one strand shown; matrix: in vitro; tested at: 0.8 µM; setting: whole 60-bp probe, no competitor; direction: higher = stronger binding; measurement: fluorescence intensity; constant ends, left off below: … GTCTTGATTCGCTTGACGCTGCTG
Target: Centromere-binding protein 1, full length, N-terminal tag (CBF1, Saccharomyces cerevisiae, UniProt P17106, residues 1-351)
UniProt P17106, sequence (whole entry, looked up): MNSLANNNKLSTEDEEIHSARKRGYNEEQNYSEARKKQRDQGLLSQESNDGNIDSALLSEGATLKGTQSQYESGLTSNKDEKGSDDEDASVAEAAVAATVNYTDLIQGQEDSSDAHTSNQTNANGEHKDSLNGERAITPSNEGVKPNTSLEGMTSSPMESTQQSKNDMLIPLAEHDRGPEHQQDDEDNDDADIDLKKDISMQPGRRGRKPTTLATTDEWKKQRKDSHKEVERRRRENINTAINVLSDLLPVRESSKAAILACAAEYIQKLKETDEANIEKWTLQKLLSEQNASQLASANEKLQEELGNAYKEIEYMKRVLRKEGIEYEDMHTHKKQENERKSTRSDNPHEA
CTATAACGGAGCCGTGACGAGAGTGGCTGTGATTTC: 594 a.u.
GAAATATTGCACGTTCCGACCACGATTATAGAGTAG: 842 a.u.
CCTAACTACTATAAAAACGTGGGATAGCTTCGTACA: 530 a.u.
CTATATTTAATGCGTCACCTGCCTATTCAATAATTC: 1770 a.u.
CCTAACTACTATAGTAACGTGGGATAGCTTCGTACA: 549 a.u.
TGTACGAAGCTATTAGGTGACATTATAGTAGTTAGG: 539 a.u.
TGTACGAAGCTATACGTGACAACTATAGTAGTTAGG: 621 a.u.
CTAAATCCCCTGAGTCATCAGAATCTGACTCAGTTC: 484 a.u.
GAAGGAAAGCAAAGGAACGTGTTTTAATTGATGTAG: 591 a.u.
GAAGGCGCCACAGGGCACATGGAGTTTATTTATTAG: 572 a.u.
TGTACGAAGCTATACCAGGTGAGTATAGTAGTTAGG: 574 a.u.
GAATCTCCCCCAGGTCACGATATAAATGTCAATTAG: 1190 a.u.
CTATTTTTCCGCTTTCGGGTGACACTTAATTTATTC: 544 a.u.
GAAACTGAAACGGCTCACGAGTCTAGTGAGCCCTAG: 558 a.u.
CTACTACTCATCGGTGACGGCTTTTCTCACTTTTTC: 520 a.u.
CTAACTAGACTGCGTGGTGTTGTTCAATTCAAATTC: 540 a.u.
CTAAGGGCCTTCGTTCTCATCACCATTATTGGCTTC: 464 a.u.

Series 6 — method: RNA Bind-n-Seq; form: RNA; matrix: in vitro; tested at: 100 nM; relative to: input RNA pool; direction: higher = stronger binding; measurement: bound/input enrichment
Target: RING finger protein unkempt homolog, zinc fingers 1-6, SBP tag (UNK, Homo sapiens, UniProt Q9C0B0, residues 30-357)
UniProt Q9C0B0, sequence (30-357, looked up): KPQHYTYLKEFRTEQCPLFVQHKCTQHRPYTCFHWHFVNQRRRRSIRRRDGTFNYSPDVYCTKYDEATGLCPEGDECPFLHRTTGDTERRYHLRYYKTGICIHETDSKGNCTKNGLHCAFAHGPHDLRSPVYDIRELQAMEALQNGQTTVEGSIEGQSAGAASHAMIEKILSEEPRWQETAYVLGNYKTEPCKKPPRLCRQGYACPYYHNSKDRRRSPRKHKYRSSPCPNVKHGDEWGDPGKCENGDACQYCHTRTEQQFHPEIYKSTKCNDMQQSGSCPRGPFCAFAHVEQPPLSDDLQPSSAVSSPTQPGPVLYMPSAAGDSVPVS
Setting: RNA with constant flanks, vertebrate orthologous sites, ends assumed
Constant ends, left off below: GGGAGUUCUACAGUCCGACGAUC … CAACAGAGGAUUGAGCAUCA
ACUGUUGUUAAGCACUGUGUUCCAGACCGUGUCUGACUUAGUGUAACCUAGGAGAUUUUAUAGUUUUAUUUUAAUGAAACCCUGAUUGACGCACAGCAGUGGGGAGAACAGCAUCUUUUA: 2.03 ratio
UUGUGAGGAGUGGGAAGGAUGAGAUUCUUCUCCCUCCAAGUAAAACUGACAUAAUUUCCUUUUAGUUCUGUCUUUGAAAACAAAGAUGCCCUUUUCUCUUAAUUGUGUGACACCACUAUC: 0.691 ratio
UCCGGGUGUACCUGUGGGCGCUGCUGGCCACGUAGCGUCAUUUGAUUUAUGACCUUGACAUAAUAGAUAGGCUUGUGGUUUUUUAAUUUAAAGAUAUUAAGACUUAAUUUACUAAAAUUU: 0.478 ratio
AAAUUUAUUUCAUGCCCUGGACUCCCUAUCGUACUGAUACUUUGAUAGAAUAUGCUUCUUUAGAAGAUUUCCAAAACAGUCGCCAAACAACAACGUAUAAACUUCCAAAUCGAGUAGAUG: 0.796 ratio
GUGUUUUGGUACCACUCAAUGUACCAAUACUCAUCCUUUUUUCAUUAUACCAACUAUCGCUAGAAGUAGGAGUUUAAUAUUUUAAAAAUUUUACAUUGCUGUAUAUUCAAAAUUUUAAAG: 0.517 ratio
CACAUCUGGUGAUAUUUGGCCUGGCCUUUCAGCUUAUGAUAAUAGUCCCAGAUCACCCCAUAGCCCAUCACCUAUUGCUACACCACCUAGUCAGAGUUCAUCUUGCUCUGAUGCCCCCAU: 1.03 ratio
GCCUCUAGCAGGCAAUUUCAGGGAGAGAUAGGCUUCAGGGAAUAUAAAUUUAUUUAAUAUUAGUGUUCUUGAAGUAUAAACUUGAUAUAAUUGUUUUGGGAGGGGGACAAUGAUGAUGAC: 1.43 ratio
GUUGUGACCCAUUUAACAUACACAAAAAAUUAGCGAAAAAAAAUUUGCAUGUAAUUGACUUAGAUGAUGCCACUUUUCUGAGUGCUAAAUUUGGAAGACAGCUUGUACCUGGUUGGAAGC: 1.6 ratio
GUUUUUGUUUUCCACAUGUGGCAGUGUUUGUAUUGAGGAUCUUCUGAGGAAGGGGUGCUAUAGCAGUGGUGCCUGGGUUCCUGGCCUCCAGUGCCCCCACCACCCCAACUGGCAGCUUUG: 0.529 ratio
UGUGUUUUGGUACCAUUCAAUGUACCAAUACUCAUCCUUUUUCAUUAUACCAACUAUCGCUAGAAGUAGGAGUUUAAUAUUUUUAAAGAUUUUACAUUGCUGUAUAUUCAAAAUUUUAAA: 0.58 ratio
AAGUAUCCCAGUUUACCGUGUUGAGUUGGCAUUGUACAGAAAUUAACAGCCAUAUUGGUCUAGAAAUGUUGAACUUAAUUUUUUCCCAUUUGUACAGGGGUAACGCACUGUAUUAAAUAU: 0.517 ratio

A few entries again (series 5):
CTATATTTAATGCGTCACCTGCCTATTCAATAATTC: 1770 a.u.
CCTAACTACTATAGTAACGTGGGATAGCTTCGTACA: 549 a.u.
TGTACGAAGCTATTAGGTGACATTATAGTAGTTAGG: 539 a.u.
TGTACGAAGCTATACGTGACAACTATAGTAGTTAGG: 621 a.u.
CTAAATCCCCTGAGTCATCAGAATCTGACTCAGTTC: 484 a.u.
GAAGGAAAGCAAAGGAACGTGTTTTAATTGATGTAG: 591 a.u.
GAAGGCGCCACAGGGCACATGGAGTTTATTTATTAG: 572 a.u.
TGTACGAAGCTATACCAGGTGAGTATAGTAGTTAGG: 574 a.u.
GAATCTCCCCCAGGTCACGATATAAATGTCAATTAG: 1190 a.u.
CTATTTTTCCGCTTTCGGGTGACACTTAATTTATTC: 544 a.u.
GAAACTGAAACGGCTCACGAGTCTAGTGAGCCCTAG: 558 a.u.
CTACTACTCATCGGTGACGGCTTTTCTCACTTTTTC: 520 a.u.
CTAACTAGACTGCGTGGTGTTGTTCAATTCAAATTC: 540 a.u.
CTAAGGGCCTTCGTTCTCATCACCATTATTGGCTTC: 464 a.u.
